Results gathered from unrelated publications.
Several values in a cell are separate wells, animals, samples, runs or records. ± marks the error that the study gave. Where no end group is shown, it is not given here.
CASP4: Caspase-4 (CASP4, Homo sapiens, UniProt P49662)
APP: Amyloid-beta precursor protein (APP, Homo sapiens, UniProt P05067)
AR: Androgen receptor (AR, Homo sapiens, UniProt P10275)
ESR1: Estrogen receptor (ESR1, Homo sapiens, UniProt P03372)
B1: side-chain stapled; chain AACVSFQNLDCG (also: sidechain bridge or staple (positions not given here))

`Ac-ARACA-NH2 (N-acetyl, C-amide)` gave an ID50 of over 3000 µM (Fibroblast growth factor 2, with pentraxin 3 (Homo sapiens, UniProt P09038); binding to PTX3, competitor, surface plasmon resonance; peptide; added: 150 nM free FGF2).
`O=C(c1ccccc1)c1ccc2n1CCC2C(=O)O` (stereo not shown) gave a remaining activity of 4.09% (CASP4; 33 µM, added: LEHD substrate; baseline: solvent control).
With `CC[C@H](C)[C@H](NC(=O)[C@H](NC(=O)[C@@H](N)C(C)C)C(C)C)C(=O)N[C@@H](C)C(N)=O` the inhibition was 46.5% (APP; amyloid aggregation, inhibitor, fluorescence; 4 µM, 24 h).
`CC(NC(=O)CCCc1ccc2ccc3cccc4ccc1c2c34)C(=O)NO` (stereo not shown): “protons released on binding” 0.08 ± 0.03 protons per ligand (Histone deacetylase 8 (HDAC8, Homo sapiens, UniProt Q9BY41); ITC in four buffers; concentration not given, pH 7.5).
For `Ac-YESTNPFTAK-NH2 (N-acetyl, C-amide)`, the TΔS was -6.66 kcal/mol (EHD1 EH domain, mouse; ITC; peptide; pH 7.0, 20 °C, 0 mM KCl, first titration).
The remaining activity of `CCCCc1nc2c([nH]1)c(=O)n(C)c(=O)n2C` is reported as 80% (AR; reporter gene, antagonist, PSA-luciferase; HeLa-A6; 10 µM, 24 h, added: 5 nM dihydrotestosterone; baseline: maximal activity).
The kon of `CC(C)[C@H](NC(=O)[C@H](CCCNC(=N)N)NC(=O)[C@@H](NC(=O)[C@H](CCC(N)=O)NC(=O)[C@H](CCC(N)=O)NC(=O)[C@@H](NC(=O)[C@H](Cc1c[nH]c2ccccc12)NC(=O)[C@@H]1CCCN1C(=O)[C@@H]1CCCN1C(=O)[C@H](Cc1c[nH]cn1)NC(=O)[C@H](CO)NC(=O)CNC(=O)[C@H](CCCNC(=N)N)NC(=O)[C@H](CCCNC(=N)N)NC(=O)[C@H](CCCNC(=N)N)NC(=O)[C@H](CCCNC(=N)N)NC(=O)[C@H](CCCNC(=N)N)NC(=O)[C@@H](N)CCCNC(=N)N)C(C)C)[C@@H](C)O)C(=O)O` is reported as 216000 M⁻¹ s⁻¹ (Disks large homolog 4, PDZ3 domain (Homo sapiens, UniProt P78352); binding, surface plasmon resonance; pH 7.5, 25 °C).
`B1` gave a selectivity ratio of 3 fold (Prolyl endopeptidase (PREP, Homo sapiens, UniProt P48147); enzyme activity; 200 µM, 37 °C; baseline: FAPα over PREP).
For `C[C@]12CC[C@@H]3c4ccc(O)cc4C[C@@H](CCCCCCCCC[S+]([O-])CCCC(F)(F)C(F)(F)F)[C@H]3[C@@H]1CC[C@@H]2O` (stereo partly shown), the efficacy was -7 ± 1% (ESR1; reporter gene, antagonist; HepG2; added: estradiol 10 nM; baseline: E2 response, negative is inverse agonism).
For `CSc1nc2c([nH]1)c(=S)n(C)c(=S)n2C`, the remaining activity was 75% (AR; reporter gene, antagonist, PSA-luciferase; HeLa-A6; 10 µM, 24 h, added: 5 nM dihydrotestosterone; baseline: maximal activity).
`CQTA`: “farnesylation rate constant” 0.23 ± 0.02 s⁻¹ (Protein farnesyltransferase (Rattus norvegicus, UniProt Q02293+Q04631); substrate, stopped-flow fluorescence; peptide; pH 7.8, 25 °C, single turnover).
`O=C(N1CCCC[C@@H]1Cc1ccccc1)n1cnc(C(O)(c2ccc(F)cc2)c2ccc(F)cc2)n1` has a kinact of 0.00125 s⁻¹ (Diacylglycerol lipase-alpha (Mus musculus, UniProt Q6WQJ1); enzyme activity, inhibitor).
`O=C(Nc1ccn(Cc2ccc(O)cc2C(F)(F)F)n1)c1c(F)cccc1F` — result for “fold change in sensitivity”: about 10 fold (Protein orai-3 (ORAI3, Homo sapiens, UniProt Q9BRQ5); ion current, inhibitor, whole-cell patch clamp; concentration not given, added: 2-APB; baseline: 2-APB-elicited over STIM1-activated currents).
With `Cc1ccc(C(=O)C2=C(O)C(=O)N(CC(C)O)C2c2ccc(C(C)C)cc2)cc1` (stereo not shown) the complex loss was about 70% (Protein S100-A10, with annexin A2 (Homo sapiens, UniProt P60903); S100A10-annexin A2 binding, inhibitor, coimmunoprecipitation; MDA-MB-231 cell lysate; 50 µM).
`CC(=O)Oc1cccc2c1C(=O)c1c(OC(C)=O)cc(C(=O)O)cc1C2=O` gave a remaining activity of 12.5% (CASP4; 33 µM, added: LEHD substrate; baseline: solvent control).
`O=c1ccn([C@@H]2O[C@H](COP(=O)(O)OP(=O)(O)O)[C@@H](O)[C@H]2O)c(=O)[nH]1` — result for “exchange rate constant kAB”: 2 ± 0.5 Hz (Histo-blood group ABO system transferase (ABO, Homo sapiens, UniProt P16442, G235S/G268A/L266M/R176G); ZZ-exchange NMR; 250 µM, added: H-disaccharide 1.5 mM).
`CC(C(=O)O)c1ccc(C(=O)c2ccccc2)s1` (stereo not shown) gave a remaining activity of 4.32% (CASP4; 33 µM, added: LEHD substrate; baseline: solvent control).
For `O=C1Nc2ccccc2C1=O`, “protection against dGTP glycation” read “inhibited” (Parkinson disease protein 7 (PARK7, Homo sapiens, UniProt Q99497); enzyme activity, inhibitor, HPLC; PARK7 5 µM, added: dGTP 500 µM, methylglyoxal 5 mM).
`CCCCC/C=C\C[C@H](O)/C=C/C=C\C/C=C\CCCC(=O)O` gave an AC50 of 28 ± 2 µM (Seed linoleate 13S-lipoxygenase-1 (Glycine max, UniProt P08170); substrate specificity kcat/KM AA/LA; pH 9.2, 22 °C, added: arachidonic and linoleic acid).
`O=S(=O)(O)c1cc(N=C=S)ccc1CCc1ccc(N=C=S)cc1S(=O)(=O)O` has an ID50 of 0.72 µM and 0.3 µM and 0.4 µM and 0.41 µM (SLC4A1 (Homo sapiens, UniProt P02730); chloride exchange; human red blood cells; pH 9.0, 0 °C, pH-induced inward chloride gradient, added: external chloride 60 mM).
`O=C(O)c1cccc(C(=O)O)n1`: “binding free energy” -3.68 kcal/mol (racE (Bacillus subtilis, UniProt P94556); enzyme activity, inhibitor).
Under “relative binding affinity”, `CN(C)CCOc1ccc([C@H]2C[C@]3(C)[C@@H](O)CC[C@H]3[C@@H]3CCc4cc(O)ccc4[C@H]32)cc1` is recorded as 26 to 39% (Estrogen receptor, ligand-binding domain (ESR1, Homo sapiens, UniProt P03372); radioligand competition; concentration not given, overnight, room temperature, ligand-binding domain, added: [3H]estradiol; baseline: estradiol).
With `CC(=O)N[C@@H](CCC(=O)O)C(=O)N[C@H](C(=O)N[C@@H](CC(C)C)C(=O)N[C@H](C(=O)N[C@@H](CCCNC(=N)N)C(=O)N1CCC[C@H]1C(=O)N[C@@H](CCCCN)C(=O)N1CCC[C@H]1C(=O)N[C@@H](CC(C)C)C(=O)N[C@@H](CC(C)C)C(=O)N[C@@H](CC(C)C)C(=O)N[C@@H](CCCCN)C(=O)N[C@@H](CC(C)C)C(=O)N[C@@H](CC(C)C)C(=O)N[C@@H](CCCCN)C(=O)N[C@@H](CO)C(=O)N[C@H](C(=O)NCC(=O)N[C@@H](C)C(=O)N[C@@H](Cc1ccc(O)cc1)C(N)=O)C(C)C)C(C)C)[C@@H](C)O` the koff was 100 ± 20 s⁻¹ (Protein S100-B (Homo sapiens, UniProt P04271); binding, NMR line shape, NMR only; 35 °C, low salt).
The relative IC50 of `RDAAPLPRPGAVLKDFTV (LAGE-1 (111-128); sequence looked up)` is reported as over 7300 (HLA-DPB1*0401; peptide binding, biotinylated peptide competition; peptide; baseline: peptide over reference peptide, lower = stronger binding).
The remaining activity of `CC(C(=O)O)c1ccc2c(c1)[nH]c1ccc(Cl)cc12` (stereo not shown) is reported as 12.2% (CASP4; 33 µM, added: LEHD substrate; baseline: solvent control).
`S=c1nc(C2CC2)[nH]c2ccccc12` — result for “inhibition fold change”: 5 fold (Sphingomyelin phosphodiesterase (SMPD1, Homo sapiens, UniProt P17405); inhibitor; concentration not given, pH 5.0; baseline: HMU-PC over sphingomyelin substrate).
`CN(C)C/C=C/C(=O)Nc1cccc(C(=O)Nc2ccc(Nc3nccc(-c4c(-c5ccccc5)nn5ccccc45)n3)cc2)c1` has an inhibition of 98.9% (Mitogen-activated protein kinase 14 (MAPK14, Homo sapiens, UniProt Q16539); target engagement in cells, inhibitor, chemoproteomics; A-375; 1 µM).
For `COc1cccc(C(=O)Nc2nnc(S(=O)(=O)N3CCOCC3)s2)c1`, the efficacy was 47% (GPR32 (Homo sapiens, UniProt O75388); β-arrestin recruitment, agonist, PathHunter; CHO cells expressing GPR32; concentration not given; baseline: vehicle).
`Ac-GPSLNPFDEED-NH2 (N-acetyl, C-amide)` has a Ka of 861000 M⁻¹ (EHD1 EH domain, mouse; ITC; peptide; pH 7.0, 20 °C, 0 mM KCl, first titration; higher = stronger binding).
`Clc1ccc2c(c1)CCc1cccnc1C2=C1CCN(CC2CC2)CC1`: “duration of complete antagonism” at least 2 h (Histamine H1 receptor (HRH1, Homo sapiens, UniProt P35367); histamine-induced calcium response, antagonist; concentration not given, after washout of unbound compound, added: histamine).
`COc1cc(/C=C/C(=O)CC(=O)/C=C/c2ccc(O)c(OC)c2)ccc1O` gave a band density of 414 ± 64% (APP; Aβ aggregation, SDS-PAGE western blot, item: Aβ1-42 75-200 kDa band; 30 µM, 24 h, 37 °C, added: Aβ1-42 10 µM; baseline: DMSO).
`Cc1c(C)c2c(c(C)c1O)CC[C@@](C)(CCCCCCCCCn1ccnc1)O2` — result for “concentration for complete inhibition”: under 0.25 µM (Cytochrome P450 4F2 (Homo sapiens, UniProt P78329); γ-tocopherol metabolism; HepG2/C3A).
For `CC(=O)N[C@H]1C(O)O[C@H](CO)[C@H](O)[C@@H]1O` (mixture of isomers), the binding enthalpy was -11.6 kcal/mol (CLEC10A (Homo sapiens, UniProt Q8IUN9); ITC; concentration not given, pH 7.4, 298 K).
The kcat of `Cc1cc(=O)oc2cc(NC(=O)[C@H](CCCNC(=N)N)NC(=O)CN)ccc12` is reported as 1.25 ± 0.02 s⁻¹ (dipeptidyl aminopeptidase (Parabacteroides distasonis); substrate, fluorogenic AMC; 50 nM to 100 µM).
`CN(Cc1cnc2nc(N)nc(N)c2n1)c1ccc(C(=O)N[C@@H](CCC(=O)O)C(=O)O)cc1` gave a transport activity of about 17% (Reduced folate transporter (SLC19A1, Homo sapiens, UniProt P41440, S313A); substrate, radiolabelled uptake; HeLa R5 transfected; 0.5 µM, 2 min, 37 °C; baseline: wild-type hRFC).
With `CCN(c1ccccc1)S(=O)(=O)C1CC2OC1C(c1ccc(O)cc1)=C2c1ccc(O)cc1` (stereo not shown) the efficacy was 10 ± 2% (ESR1; reporter gene, antagonist; HepG2; added: estradiol 10 nM; baseline: E2 response, negative is inverse agonism).
`Nc1ncnc2c1ncn2[C@@H]1O[C@H](COP(=O)(O)O)[C@@H](OP(=O)(O)O)[C@H]1O` gave a Ki' of 3.8 µM (Protein-tyrosine sulfotransferase 2 (Homo sapiens, UniProt O60704); enzyme activity, product inhibitor; pH 7.5, 30 °C, noncompetitive versus peptide, added: CCR8 peptide, PAPS 25 µM).
`Nc1nc2c(ncn2[C@@H]2O[C@@H]3COP(=O)(O)O[C@H]3[C@H]2O)c(=O)[nH]1`: “relative maximal current” 1 (Cyclic nucleotide-gated channel alpha-2 (Cnga2, Rattus norvegicus, UniProt Q00195); ion current, agonist, inside-out patch clamp; WT channel, +50 mV; baseline: cAMP at saturation).
For `CCc1nc2c([nH]1)c(=O)n(C)c(=O)n2C`, the remaining activity was 120% (Glucocorticoid receptor (Nr3c1, Rattus norvegicus, UniProt P06536); reporter gene, antagonist, MMTV-luciferase; T47D/A1-2; 10 µM, 24 h, added: 5 nM dexamethasone; baseline: maximal activity).
With `CC[S+]([O-])c1nc(-c2cccc(OCc3ccccc3)c2)cc(C(F)(F)F)n1` (stereo not shown) the cAMP accumulation was over 100% (Glucagon-like peptide 1 receptor (GLP1R, Homo sapiens, UniProt P43220); positive allosteric modulator; HEK293T overexpressing target; 12.5 µM, added: GLP-1(9-36); baseline: peptide agonist).
